Experimental data gathered from unrelated publications.
Each line is one published result; not all experiments were run side by side. “And” joins repeats or separate records; there may be more than shown.
Target: Interleukin-1 receptor-associated kinase 1 (IRAK1, Homo sapiens, UniProt P51617)

COc1ccc(NC(=O)Nc2ccc3c(c2)C(=O)N(C(C)CO)CC(C)C(CN(C)Cc2ccc4c(c2)OCO4)O3)cc1 (stereo not drawn)  remaining activity (kinase activity, KinaseProfiler; 0.03 µM, species human; baseline: control): 91%
COc1cc(Nc2nccc(-c3cnn4nc(OC)ccc34)n2)cc(C(F)(F)F)c1  remaining binding (binding, competition with immobilised ligand; 1 µM): 61%
COCC12C(=O)NC3C4(C(OC)CC1O)C1CC5(O)C(OC)C(O)C(OC(C)=O)(C1C5OC(=O)c1ccccc1)C3(O)C(OC)C24 (stereo not drawn)  remaining activity (kinase activity, inhibitor, ProQinase kinase profiling; 25 µM; baseline: control): 88% and 86%
CCn1cc(C(=O)O)c(=O)c2c(N)c(F)c(NC3CCCCC3)cc21  inhibition (kinase activity; 0.1 µM, added: ATP at Km): -4.5%
CNC1C[S+]2CC[S+]3CC[S+](C1)[Ru-4]321([N]=C=S)[n]2c3ccc(OC)cc3c3c4c(c5cc(F)c[n+]1c5c32)C(=O)NC4=O (stereo not drawn)  remaining binding (KinomeScan; 0.1 µM; baseline: untreated): 87%
COC(=O)[C@@]1(C)C=C(C(=O)Nc2cccc(C(=O)Nc3ccc(Nc4nccc(-c5cccnc5)n4)c(C)c3)c2)C(=O)CC1  remaining binding (binding, competition with immobilised ligand; 1 µM): 39%
Cc1cnc2nc1Nc1cccc(c1)COC/C=C/COCc1cc(ccc1OCCN1CCOCC1)N2  remaining binding (binding; 0.1 µM): 39%
CN1CCN(Cc2ccc(-c3ccc(CO[C@H]4CCC[C@@H]4NC(=O)c4cc(-c5cnn(C)c5)cnc4N)cc3)cc2)CC1  inhibition (enzyme activity, inhibitor; 0.1 µM): 8%
C=CC(=O)Nc1cccc(-c2cnc3[nH]cc(C(=O)NC(C)(C)C)c3n2)c1  inhibition (kinase activity; 0.1 µM): 3% and -8%
NC(=O)C[C@H]1CCc2sc3ncnc(O[C@H]4CC[C@H](N5CCOCC5)CC4)c3c21  inhibition (enzyme activity, inhibitor; 10 µM): 68%
O=C(Cc1ccc(OCc2ccccc2)cc1)NC1(C(=O)O)CCN(C(=O)c2ccc(-c3cccc(Cl)c3)cc2)CC1  activity vs control (enzyme activity, inhibitor; 10 µM): 103%
CCN1CCN(Cc2ccc(C(=O)Nc3ccc(C)c(NCc4cnc5[nH]ccc5c4OC)c3)cc2C(F)(F)F)CC1  remaining binding (binding, competition with immobilised ligand; 1 µM): 100%
Cc1cccc(O[C@H]2CCC[C@@H](C(C)CNCc3ccncc3)C2)c1 (relative stereo)  inhibition (enzyme activity, inhibitor; 10 µM): -10%
C=CC(=O)N1Cc2nc(-c3cc(-c4cc(Cl)cnc4Cl)c(F)cc3F)n(-c3ccncn3)c2C1  inhibition (cell-free assay, inhibitor; 1 µM): -8.9%
O=C(Nc1cc(-c2ccnc3[nH]ccc23)c(Cl)cn1)[C@H]1CCC[C@@H](NC(=O)C(F)(F)F)C1  remaining binding (binding, competition with immobilised ligand; 0.1 µM): 34%
Cc1ccc(-c2c(/C=C(\C#N)C(=O)NC(C)C)n(CCCO)c3ncnc(N)c23)cc1  remaining binding (cell-free assay, competition with immobilised ligand; 1 µM): 98%
CN1CC[C@@H](COc2cnc(C#N)cc2-c2ccn3nc(NC(=O)C4CC4)cc3c2)C1  inhibition (enzyme activity, inhibitor; 1 µM): 3%
CS(=O)(=O)Nc1cccc(-c2csc3cnc(Nc4ccc(N5CCN(CCCCCOc6cccc7c6C(=O)N(C6CCC(=O)NC6=O)C7=O)CC5)cc4)nc23)c1 (stereo not drawn)  inhibition (probe labelling, inhibitor, KiNativ chemoproteomics; MOLT-4; 1 µM): 63.6%

Some of these lines once more:
NC(=O)C[C@H]1CCc2sc3ncnc(O[C@H]4CC[C@H](N5CCOCC5)CC4)c3c21  inhibition (enzyme activity, inhibitor; 10 µM): 68%
CN1CC[C@@H](COc2cnc(C#N)cc2-c2ccn3nc(NC(=O)C4CC4)cc3c2)C1  inhibition (enzyme activity, inhibitor; 1 µM): 3%
